Experimental data gathered from unrelated publications.
Each line is one published result; not all experiments were run side by side. Values joined by “and” are separate records of one study, mostly repeats; a detail may differ. ± gives the spread as reported.

Compound	assay	system	conditions	how to read	measurement	result
COc1cc2c3c(c4cc(OC)c(OC)cc4c2cc1OC)CN1CCCCC1C3 (centres unmarked)		Sprague-Dawley rat, male	intravenous, dose not given		clearance	101 mL/min/kg
COC(=O)C=CCCC(NC(=O)c1ccncc1C(=O)O)C(=O)NC(C(=O)N1CC(=O)CC1C(=O)NC(C(=O)NC(C(N)=O)C1CCCCC1)C1CCCCC1)C(C)(C)C (centres unmarked)		New Zealand White rabbits, venous stasis, jugular vein	intravenous bolus plus infusion, dose not given, time not given	baseline: baseline	blood flow recovery	22%
CCNc1cc2[o+]c3cc(NCC)c(C)cc3c(-c3ccccc3C(=O)OCCOCC[18F])c2cc1C		rat	120 min	baseline: heart over liver	tissue uptake ratio	13.4 and 16.1
O=C(c1ccc(F)cc1)C1CCN(C2Cc3c(cccc3OCC[18F])CC2O)CC1 (single isomer, unassigned; (-))		Sprague-Dawley rat, male, pancreas	intravenous, dose not given, 30 min		tissue uptake	1.2 ± 0.347 %ID/g
CN(C)C(CNC(=O)Nc1cc(C(F)(F)F)ccc1N1CCOCC1)c1ccncc1 (centres unmarked)		mouse, serum	intraperitoneal, 180 mg/kg single dose		serum indirect bilirubin	0.2 mg/dL
COc1cc(NC(=O)C(=O)c2c(C)n(Cc3ccc(Cl)cc3)c3ccc(C)cc23)ccn1		cynomolgus monkey, plasma	oral, 10 mg/kg		bioavailability	14 to 21%
CCCCCCCCCCCCC(=O)O.O=C1CCCC2C3CCCN4CCCC(CN12)C34 (centres unmarked)		water	concentration not given, 298.15 K		critical aggregation concentration	0.00096 mol/kg
[2H]C([2H])([2H])C([2H])([2H])C([2H])([2H])OC(C(=O)OC1CCNCC1)(c1ccccc1)c1ccccc1	item: acne	healthy Japanese male	oral, 12 mg, 16 days, multiple ascending dose		adverse events	14.3%
CC[C@H](C)[C@H](NC(=O)[C@H](C)NC(=O)[C@H](CCCNC(=N)N)NC(=O)CNC(=O)CNC(=O)[C@H](CCCNC(=N)N)NC(=O)[C@H](CCCNC(=N)N)NC(=O)[C@H](CCCNC(=N)N)NC(=O)[C@H](CCC(N)=O)NC(=O)[C@H](CCCNC(=N)N)NC(=O)[C@H](CCCNC(=N)N)NC(=O)[C@H](CCCCN)NC(=O)[C@H](CCCCN)NC(=O)[C@H](CCCNC(=N)N)NC(=O)CNC(=O)[C@@H](N)Cc1ccc(O)cc1)C(=O)N[C@H](C(=O)N[C@H](C(=O)N[C@@H](CC(C)C)C(=O)N[C@@H](CC(=O)O)C(=O)N[C@H](C(=O)N[C@@H](CCC(=O)O)C(=O)N[C@@H](CCCCN)C(=O)N[C@@H](CO)C(=O)O)[C@@H](C)O)[C@@H](C)CC)[C@@H](C)O		male Sprague-Dawley rat, myocardial infarction	iv, 1 mg/kg, 2 h reperfusion		rectal body temperature	37.2 ± 0.1 °C
O=c1cc(-c2ccccc2)oc2c(Br)c(O)c(O)c(O)c12		C57BL/6 mouse, plasma	po, 150 mg/kg		Vz	4350 ± 1920 mL
COc1ccc(NC(=O)Cn2c(=O)c3ccccc3n(CC(=O)Nc3cc([125I])c(OC)cc3OC)c2=O)cc1		rat, brain	intravenous, 5 min		tracer uptake	0.01 %ID/g
